Experimental data of several laboratories.
Lines come from different studies, so protocols differ. ± gives the spread as reported.

| SMILES | system | setting | tissue uptake |
| --- | --- | --- | --- |
| N#C[C@@H]1CC(F)(F)CN1C(=O)CNC(=O)c1ccnc2c(NC(=O)[C@H](CCCCNC(=O)CCOCCOCCOCCOCCOCCOCCNC(=O)CN3CCN(CC(=O)[O-])CCN(CC(=O)[O-])CCN(CC(=O)[O-])CC3)NC(=O)CCCc3ccc(I)cc3)cccc12.[177Lu+3] | mouse, U-87 MG tumour xenograft, brain | 72 h | 0.04 ± 0.1 %ID/g |
| Cc1cc(C)n(CCN(CCN)CCCCCCNC(=O)[C@@H](N)Cc2c[nH]cn2)n1.[99Tc+].[C-]#[O+].[C-]#[O+].[C-]#[O+] | BALB/c nude mice, MCF7 xenograft, tumor | intravenous, 15 min | 0.35 ± 0.02 %IA/g |
| N#C[C@@H]1CC(F)(F)CN1C(=O)CNC(=O)c1ccnc2c(NC(=O)CCOCCOCCOCCOCCOCCOCCNC(=O)[C@H](CCCCNC(=O)CN3CCN(CC(=O)[O-])CCN(CC(=O)[O-])CCN(CC(=O)[O-])CC3)NC(=O)CCCc3ccc(I)cc3)cccc12.[177Lu+3] | mouse, U-87 MG tumour xenograft, lung | 24 h | 0.42 ± 0.09 %ID/g |
| O=C(NCC1OC2CCC=CCCC2O1)c1ccc([18F])nc1 (stereo not drawn) | healthy female BALB/c nude mice, brain | intravenous, 7.4 MBq per mouse, 5 min | 2.7 ± 1.3 %ID/g |
| COc1cccc(OC)c1-c1cc(C(=O)NC2(C(=O)O)C3CC4CC(C3)CC2C4)nn1-c1ccc(C(=O)N(C)CCCN(C)C(=O)[C@H](CCCCNC(=O)[C@H](CC(C)C)NC(=O)C2OC2C(=O)O)NC(=O)CN2CCN(CC(=O)[O-])CCN(CC(=O)[O-])CCN(CC(=O)[O-])CC2)cc1C(C)C.[177Lu+3] (mixture of isomers) | mouse, HT-29 xenograft, liver | 24 h post injection | 0.82 %ID/g |
| [123I]c1ccc2nc(-c3ccc(-n4ccnn4)nc3)cn2c1 | Wistar rat, male, red marrow | intravenous, 4 MBq, 30 min | 0.179 ± 0.188 %ID/g |
| CC(C)Cc1ccc(C(C)C(=O)N[C@@H](CCCCNC(=O)CCOCCOCCOCCOCCOCCOCCNC(=O)CN2CCN(CC(=O)[O-])CCN(CC(=O)[O-])CCN(CC(=O)[O-])CC2)C(=O)Nc2cccc3c(C(=O)NCC(=O)N4CC(F)(F)C[C@H]4C#N)ccnc23)cc1.[177Lu+3] (stereo partly drawn) | mouse, U-87 MG tumour xenograft, spleen | 4 h | 1.88 ± 0.3 %ID/g |
| COc1cccc(OC)c1-c1cc(C(=O)NC2(C(=O)O)C3CC4CC(C3)CC2C4)nn1-c1ccc(C(=O)N(C)CCOCCN(C)C(=O)[C@H](CCCCNC(=O)[C@H](CC(C)C)NC(=O)C2OC2C(=O)O)NC(=O)CN2CCN(CC(=O)[O-])CCN(CC(=O)[O-])CCN(CC(=O)[O-])CC2)cc1C(C)C.[177Lu+3] (mixture of isomers) | mouse HT-29 xenograft, small intestine | 24 h post injection, biodistribution | 0.192 %ID/g |
| N#C[C@@H]1CC(F)(F)CN1C(=O)CNC(=O)c1ccnc2c(NC(=O)[C@@H](N)CCCCNC(=O)CCOCCOCCOCCOCCOCCOCCNC(=O)CN3CCN(CC(=O)[O-])CCN(CC(=O)[O-])CCN(CC(=O)[O-])CC3)cccc12.[177Lu+3] | mouse, U-87 MG tumour xenograft, lung | 48 h | 0.1 ± 0.03 %ID/g |
| CCCC[C@H](NC(=O)CNC(=O)CNC(=O)[C@H](CCCCNC(=O)[C@H](CC(=O)O)NC(=O)C(C)c1ccc(CC(C)C)cc1)NC(=O)CN1CCN(CC(=O)O)CCN(CC(=O)O)CCN(CC(=O)O)CC1)C(=O)N[C@H]1CC(=O)NCCCC[C@@H](C(N)=O)NC(=O)[C@H](Cc2c[nH]c3ccccc23)NC(=O)[C@H](CCCNC(=N)N)NC(=O)[C@@H](Cc2ccccc2)NC(=O)[C@H](Cc2c[nH]cn2)NC1=O (stereo partly drawn) [lutetium-177 labelled] | C57 mouse, intestines | intravenous, 0.037 MBq, 0.5 h | 1.76 ± 0.59 %ID |
| COc1cccc(OC)c1-c1cc(C(=O)NC2(C(=O)O)C3CC4CC(C3)CC2C4)nn1-c1ccc(C(=O)NCCNC(=O)[C@H](CCCCNC(=O)[C@H](CC(C)C)NC(=O)C2OC2C(=O)O)NC(=O)CN2CCN(CC(=O)[O-])CCN(CC(=O)[O-])CCN(CC(=O)[O-])CC2)cc1C(C)C.[177Lu+3] (mixture of isomers) | mouse, HT-29 xenograft, muscle | 4 h post injection | 0.8 %ID/g |
| O=C(O)CCCOc1ccc([18F])cc1-c1cc(-c2ccccc2C(F)(F)F)n(-c2ccccc2)n1 | mouse, bladder | intravenous, dose not given, 15 min | 0.03 ± 0.01 %ID/g |
| [11CH3]N1CCC(NC(=O)c2cc(-c3c(O)cc(O)cc3Oc3ccc([N+](=O)[O-])cc3)on2)CC1 | Wistar rat, female, healthy, spleen | intravenous, 30 min | 0.4 %ID |
| CCCC[C@H](NC(=O)CCCCCCCNC(=O)CN1CCN(CC(=O)O)CCN(CC(=O)O)CC1)C(=O)N[C@H]1CC(=O)NCCCC[C@@H](C(N)=O)NC(=O)[C@H](Cc2c[nH]c3ccccc23)NC(=O)[C@H](CCCNC(=N)N)NC(=O)[C@@H](Cc2ccccc2)NC(=O)[C@H](Cc2c[nH]cn2)NC1=O [fluorine-18 labelled] | C57 mice B16-F10 melanoma, kidneys | intravenous, 0.37 MBq, 2 h | 4.22 ± 0.37 %ID/g |
| COc1cccc(OC)c1-c1cc(C(=O)NC2(C(=O)O)C3CC4CC(C3)CC2C4)nn1-c1ccc(C(=O)N(C)CCOCCOCCN(C)C(=O)[C@H](CCCCNC(=O)[C@H](CC(C)C)NC(=O)C2OC2C(=O)O)NC(=O)CN2CCN(CC(=O)[O-])CCN(CC(=O)[O-])CCN(CC(=O)[O-])CC2)cc1C(C)C.[177Lu+3] (mixture of isomers) | mouse, HT-29 xenograft, lung | 168 h post injection | 0.6 %ID/g |
